Results of several laboratories.
Parts stem from different laboratories: compare values within a part only.

Block 1 — method: protein binding microarray; molecule type: double-stranded DNA, one strand shown; matrix: in vitro; tested at: not given; reference: not given; direction: higher = stronger binding
Target: Histone acetyltransferase KAT6A, winged helix 1, GST fusion (KAT6A, Homo sapiens, UniProt Q92794, residues 1-85)
Notes: 8-mer, flanks averaged, mean of 2 arrays, mostly near background
Construct (chain): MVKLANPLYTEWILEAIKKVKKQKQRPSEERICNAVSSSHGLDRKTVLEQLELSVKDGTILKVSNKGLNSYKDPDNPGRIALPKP
Strand	E-score
GCCACGAA	-0.164
CTCCTTGC	-0.162
CAAGGTGC	0.029
AAGGATCT	-0.209
CAGAAGCA	-0.0996
CCAAGACA	-0.295

Block 2 — method: aptamer microarray, sandwich; molecule type: DNA with 2'F-ANA; matrix: in vitro; tested at: 200 nM; together with: Cy3 exosite-II aptamer, 400 nM; direction: higher = stronger binding
Target: Prothrombin, mature alpha-thrombin (F2, Homo sapiens, UniProt P00734)
Notes: whole 15-mer aptamer, many near background
Strand	mean fluorescence intensity [a.u.]
GGTTGGTGTGGTTGG (2'F-ANA at 2 4 8 11 12 14)	141
GGTTGGTGTGGTTGG (2'F-ANA at 1 2 3 6 7 8 9 10 11 12 14)	53.8
GGTTGGTGTGGTTGG (2'F-ANA at 5 6 8 9 12)	170
GGTTGGTGTGGTTGG (2'F-ANA at 1 2 6 8 9 10 11 13)	45.9

Block 3 — method: universal PBM; molecule type: double-stranded DNA, one strand shown; matrix: in vitro; tested at: not given; direction: higher = stronger binding
Target: Sal-like protein 4, full length isoform B (SALL4, Homo sapiens, UniProt Q9UJQ4-2, residues 1-616)
Notes: 8-mer, flanks averaged, mean of replicates
Construct (chain): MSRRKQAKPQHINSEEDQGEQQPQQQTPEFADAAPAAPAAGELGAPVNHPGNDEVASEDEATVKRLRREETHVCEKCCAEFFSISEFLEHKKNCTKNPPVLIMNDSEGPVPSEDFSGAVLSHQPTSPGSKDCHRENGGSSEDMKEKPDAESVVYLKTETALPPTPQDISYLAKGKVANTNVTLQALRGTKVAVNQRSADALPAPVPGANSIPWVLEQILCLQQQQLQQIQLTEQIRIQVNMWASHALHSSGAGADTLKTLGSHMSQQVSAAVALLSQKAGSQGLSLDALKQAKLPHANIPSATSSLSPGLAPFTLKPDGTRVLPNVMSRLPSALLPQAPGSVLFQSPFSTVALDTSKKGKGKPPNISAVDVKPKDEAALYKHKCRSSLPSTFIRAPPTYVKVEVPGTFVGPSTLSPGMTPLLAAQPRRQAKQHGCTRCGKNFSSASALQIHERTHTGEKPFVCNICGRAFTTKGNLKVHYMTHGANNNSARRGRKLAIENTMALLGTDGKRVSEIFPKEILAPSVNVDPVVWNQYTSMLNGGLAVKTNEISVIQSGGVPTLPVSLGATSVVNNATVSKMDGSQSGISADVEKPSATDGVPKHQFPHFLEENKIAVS
Strand	E-score
GGTGTGCA	-0.189
AACTGGAT	0.00181
CCGCACAA	0.0228
ACCGTGGG	-0.348
ATCTAATG	0.0791
CCACGGAG	-0.181

Further values, each from its own experiment
Molecule	target	test	test system	conditions	how to read	quantity	value
PhoQ, residues 284 288 289 292 302 303 AANNSF	PhoP, residues 12 14 15 18 19 NIMAP (Escherichia coli, UniProt P23836)	Sort-seq, refers to: YFP reporter	E. coli	PhoQ-PhoP variant library, together with: 10 µM Mg2+	reference: high Mg2+ state, higher = stronger signaling	fold induction	0.884

Some of these lines once more (block 1):
Strand	E-score
CAGAAGCA	-0.0996
CCAAGACA	-0.295
